Measured values pooled from the literature.
Numbered parts are unrelated; each lists some results of a single study.

Study 1
Target: RNA binding protein fox-1 homolog 2, RRM domain, GST-SBP tag (RBFOX2, Homo sapiens, UniProt O43251-10, residues 100-194)
Method: RNA Bind-n-Seq
Form: RNA
Matrix: in vitro
Tested at: 365 nM
Setting: natural RNA segment, single round, ends assumed
Baseline: no-protein control
Reading: higher = stronger binding
Shared flanks, not repeated: GGGAGUUCUACAGUCCGACGAUC … UGGAAUUCUCGGGUGCCAA
Residues (chain): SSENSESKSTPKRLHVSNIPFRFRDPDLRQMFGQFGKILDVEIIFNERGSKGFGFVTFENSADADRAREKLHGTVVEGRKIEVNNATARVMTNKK
Sequence | RBNS enrichment (R)
GAUUUGUAGACUCAUGCUAACUUUACUGCCUCUUUUUCACACUUGUUGAAAAAUCUGUGAAGAACAUAGUAAGUUAAGGUUUUCCAACUUGGAAAAAUGUACAUGAUGUG | 0.449
UUGCAAAGUAUAUAAUAUCUAAGAGGAAAGGUUUUGUCAUCCCAGCGUUGUCCACUUUGUGGGGCUUUGUAGGUAGACGGAGCCACACUACAGGCAGGGUAUGAGCAGAG | 0.785
AUGUGAACAGUGAGGAUCAGAGGUUUUAUCAGAACACAUUCUUUUUUUCUACCAACUCUCCAGAGCGUGAGUAUAGGAGUGCCAUGAGCUUUUUAGUCAGCAGUUUUGUA | 0.639
GGAUCAGGAGUUCAAGGUCAUCCUUGGCUACAUAGGGGGUUCAAAGCCAGCCUGGGCCCAAUGAAACCUGGUCUCAAGAGAACAAAACCAAACCAAUCAAAUAUGGUCCU | 0.321
UAGUGUUUCACAAAGCUUAGACCUUUACCUUCCAGCCACCCCACAGUGCUUGAUAUUUCAGAGUCAGUCAUUGGUUAUACAUGUGUAGUUCCAAAGCACAUAAGCUAGAA | 0.352
GGCAGGAAGAUACAAGUCUUUUUAAAGUUUACUGAUGCUUAACUCUGUGGGCUCGUAGUCCUCUGAAAGUGGUUGUUUUCCUAUGCACAGUGAGCUCAGAAAUAAAAACU | 0.366
CAAACGUUCCUACAGCCUAGAGGUGCGUAUACACACCCAAGUACACGCAGCCAGGCAUUCAGGGGUGUGUUUGCCACAUGGAGCAUCCCUUCCUGGUCUUGCCAGGCACC | 0.344
UGCGUGCCUGGACUCAGGAGCAUAGAAAAGACAAUUGUGGAUUGGGCCACACUGGCCUAGCCUGAACCUAGAUCCCUAACCCUGGGCUGGGUGAGGCUCACCUGCCCAGG | 0.301
GUUUGUUUCUCCAAGCCUGCUUUGUGCUUCUCACCUUUGGGUGGGAUGCCUUGCCAGUGUGUCUUACUUGGUUGCUGAACAUCUUGCCACCUCCGAGUGCUUUGUCUCCA | 0.261

Study 2
Target: RING finger protein unkempt homolog, zinc fingers 1-6, GST-SBP tag (UNK, Homo sapiens, UniProt Q9C0B0, residues 30-357)
Method: RNA Bind-n-Seq
Form: RNA
Matrix: in vitro
Tested at: not given
Setting: RNA with constant flanks, human and mouse sites, ends assumed
Baseline: input RNA pool
Reading: higher = stronger binding
Shared flanks, not repeated: GGGAGUUCUACAGUCCGACGAUC … CAACAGAGGAUUGAGCAUCA
Residues (chain): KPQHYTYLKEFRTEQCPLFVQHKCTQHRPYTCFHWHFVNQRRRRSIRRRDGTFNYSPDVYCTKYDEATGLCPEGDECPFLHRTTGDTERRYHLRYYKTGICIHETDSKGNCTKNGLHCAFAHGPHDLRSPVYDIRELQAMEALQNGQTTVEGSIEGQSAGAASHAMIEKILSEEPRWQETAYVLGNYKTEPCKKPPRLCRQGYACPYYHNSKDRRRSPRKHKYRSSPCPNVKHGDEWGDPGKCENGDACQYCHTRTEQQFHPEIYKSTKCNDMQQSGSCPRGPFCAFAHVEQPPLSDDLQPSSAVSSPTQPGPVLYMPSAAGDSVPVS
Sequence | bound/input enrichment [ratio]
UGAUUUUUCCUUUCGCGAAUCCGUAUCUGCAGAAUGGGCCACUGUAGGGGUUGGGGUUUAUUUUGUUUUGUUUUUUUUUUUCUUGAGUUCACUUUGGAUCCUUAUUUUGUAUGACUUCUG | 2.02
CAUCCAUUAUCUAUCUCCAUUUUCCAUUAUGGUACCUCUCAGAAGAGUGAGAGAGAGCUAUUAGAGAUUGUGAAGAAGAAUUUCGAUCUCCGCCCUGGGGUCAUUGUCAGGGAUCUGGAU | 0.145
GAAAUGCUGACAAGAUGUGGCAUUGGUAAGUUGCUACUCUUUGAUUAUGACAAGGUGGAACUAGCCAAUAUGAAUAGACUUUUCUUCCAACCUCAUCAAGCAGGAUUAAGUAAAGUUCAA | 0.19
ACCAGAAGAACCCUCCGGAUGUGAGCAGUCCUGGACAGAGCACGUGAGGAGGGGCCCUGGGCUAGCAGUUUGCUGGAUGGGAUUGGCUCCAAGAUGGGAGAUGAAGUCUAAAGGGUUUAU | 0.0998
ACCAGCACAUUUUCUGAAUACACAGUUGUGGCUGAUAUCUCUGUUGCUAAAAUAGAUCCUUUAGCACCUUUGGAUAAAGUCUGCCUUCUAGGUUGUGGCAUUUCAACCGGUUAUGGUGCU | 1.01
AGGCAUGAGCUCUUGGCAGGAGUGGGCUCUGAGCAGGUGUCAUAUUCAUUCUUUACAAACCAUAGAGAAAUAAUUUCAUCCCCCAACUGUAGUAAUUGUUACAAUUUUAUAUAAAAAAUU | 20.7
GGAAAAAACAGCCUAUCUGUACUUUCACCGAAAAUUGGAAAUUUGCUAUUUCUUUCCUACUUAGAUGUAAAAGGUAAUCACUUUGAAAUCCUCCCUCCUGAACUGGGUGACUGUCGGGCU | 1.08
UGAAGAUCUGUACCUGUGCACAGUGAGCUUCAAAACAAAACACAAUUGAGCUUACGUUUGUUAGCAGGCGUAGAGUAUUCAUUACGUAAUGAAGUACUUAAGCAGCUACAGGGAAGUAUU | 0.105
GCAAGGCCAGAAGAACUGACUCCUCACGUAAUGGUGCUUCUGGCCCAACACCUGGCCCGGCACCGCUUGCGGGAACCCCAACUUCUGGAAGCCAUUGCUCAUUUCCUGGUGGUUCAGGAA | 0.0756
CUGCCGACUGCAUUUAGUCUGGUCUCUUAACAGUUGCUUUCCUUGUCUGAUUCCCAAGUUUAGCAUUUUCAAAUUCAGAGUUCACAGAACACUUCUGGGUCUAAGCUUCCUUAAGGGGGA | 2.71
CCAGGACCGAGGGAGUUGAGGAUGUGACCCAGGACGGGGGGCGGGGGGGGGGGUUGUGUGUGUGGAAGGGUGGGAAGAGGCAGGAAGGCCUUGGAAGCUAACAUGCUUUCGCUACUGGAG | 0.165

Study 3
Target: Histone acetyltransferase KAT6A, winged helix 1, GST fusion (KAT6A, Homo sapiens, UniProt Q92794, residues 1-85)
Method: protein binding microarray
Form: double-stranded DNA, one strand shown
Matrix: in vitro
Tested at: not given
Setting: 8-mer, flanks averaged, mean of 2 arrays, mostly near background
Baseline: not given
Reading: higher = stronger binding
Construct (chain): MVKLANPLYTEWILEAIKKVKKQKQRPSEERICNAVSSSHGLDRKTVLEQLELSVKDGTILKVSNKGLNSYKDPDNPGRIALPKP
Sequence | E-score
CCCATGGG | -0.295
ATGTCCAA | -0.113
CACAGATC | -0.0276
GGGTAATA | -0.00206
AAACATTG | -0.173
ACTTAATA | -0.138
AGTATTAA | -0.129
ATCGCTGC | 0.189
AACGGCAG | 0.234
ATTCCCTC | -0.148
GTTAACGA | -0.0209
CAACCAGC | -0.131
GATTTGAC | 0.0345
AAAGCAAC | -0.00918
ACAGAGGG | -0.0504
AAGTATTG | -0.0282
CCCGATAG | 0.131
ATGTCATG | -0.187
TGTTTGAA | -0.258
CCAGACTC | -0.224
CGTCCCGC | 0.407
AGGGCGGG | 0.309
GATTTGGC | -0.18
CTCCCAGA | -0.189
TAGTAAAA | -0.00889

Study 4
Target: Centromere-binding protein 1, full length, His-tagged (CBF1, Saccharomyces cerevisiae, UniProt P17106, residues 1-351)
Sequence of UniProt P17106 (whole entry, looked up): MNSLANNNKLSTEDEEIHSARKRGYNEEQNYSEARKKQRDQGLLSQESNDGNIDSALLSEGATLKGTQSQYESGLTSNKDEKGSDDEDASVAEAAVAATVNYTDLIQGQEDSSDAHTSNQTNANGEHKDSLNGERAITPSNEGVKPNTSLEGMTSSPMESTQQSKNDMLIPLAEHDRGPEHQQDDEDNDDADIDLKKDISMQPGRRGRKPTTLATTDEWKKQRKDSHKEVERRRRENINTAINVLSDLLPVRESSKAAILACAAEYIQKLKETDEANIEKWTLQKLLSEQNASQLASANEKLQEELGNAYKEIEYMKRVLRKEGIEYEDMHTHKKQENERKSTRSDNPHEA
Method: competition protein-binding microarray
Form: double-stranded DNA, one strand shown
Matrix: in vitro
Tested at: 2 µM
Setting: whole 60-bp probe, lowest competitor level
With: Pho4 competitor, 0.05 µM
Reading: higher = stronger binding
Shared flanks, not repeated: … GTCTTGATTCGCTTGACGCTGCTG
Sequence | fluorescence intensity [a.u.]
TTGATCCAAGAGCACTCTGTGACGAATTCTCCTCTA | 51.8
AAATTACTAAGTTGAAATGTGGGTGACGCCGTATGA | 83.3
AAAGCGGTAATTTGTACGGTGGGTGCAGATATCTAT | 79.5
CTAACGAAGGTTTGAGCAGTGGGTGACAAGCCAAGT | 79.5
CGTCCTAGTGATTGTCACTTCACTTCCATGAGGAAG | 75.1
CTCCACTTACTTGTAATACTTTATTATTTTTCACTT | 90.3
CTTTCCCGATCTTGATAGGTGGGTGTAGCACATTTG | 77.5
TACTTTTGATGACTGTTTCTCAACTCCATGTCATTC | 85.1
ATTCGTCAATGAAGGCACATGGGGCGGTAGGGTTCG | 107
CTGACGGGTTCTGGACACGTAGGCAATCCATATTGG | 64.1
TTTGGCAAATTGACTCACGTGAGGACGTCTGCTAAC | 2560
CTTCTGTAAATTTGTCCCGTGGGTGGACGCGCCCCG | 119
CGGGAACACTACGCCAACGTGATGGGCAATTGTGCT | 229
ACAGTATATTCCAAACATGTGTTAATCAAGCGTTGA | 249
TGTACAGAAAGAAAATCCGTGATGGTTTAATGGTCA | 85.8
GCCAGCCGGTGCGGCCACGTGTTGAATCTTGACTTT | 896
GGGGAGGATGATTTTCATGTGCGAATATCTACCGGC | 103
ATATTATCTTGCGAGCATGTGCGCTCAATTTCGGGG | 248
GTTCCCATTGATTAGCACGTGAAAATCTTAGCGAGT | 1620
TTCGGGTATCTTGTTTATGTGACGCTCTGACCCAGA | 67.4
CTAACGAAGGTTTGACGGGTGGGTGACAAGCCAAGT | 72.6
CTTCTGTAAATTTGTCACGGCACTTGACGCGCCCCG | 80.5
TGCGCAACAACTTTTCACGTGTCTTTATGTCTAGAA | 1010
TACACTTCGTATTTGCACGATATGTTTCCCTTTTAA | 79.4
GATTTTGGCCGCTGGCACGTGCAGTTTCTATTAACT | 2200
